Results of several laboratories.
Each numbered part is a random draw from the data of one study; scales do not carry over between parts. Substitutions count along the parent as printed.

Study 1
Target: CCNE2, cyclin fold, Cln2 fusion (human)
Method: yeast growth competition, sequencing
Sample: yeast
Setting: strong parent motif
Relative to: not given
Reading: higher = stronger binding
Starting sequence: E2F1 docking peptide (human); PPVKRRLDLETDH
For `P1Q`, “normalised enrichment score” read 0.927.
`V3R` — result for “normalised enrichment score”: 1.33.
For `T11K`, “normalised enrichment score” read 1.28.
Under “normalised enrichment score”, `E10T` is recorded as 2.01.
For `R5N`, “normalised enrichment score” read -0.226.
`K4H`: “normalised enrichment score” -0.0584.
Under “normalised enrichment score”, `T11Y` is recorded as 2.17.
Under “normalised enrichment score”, `R6F` is recorded as 0.034.
For `K4T`, “normalised enrichment score” read -0.242.
`T11M`: “normalised enrichment score” 0.856.

Study 2
Target: RNA binding protein fox-1 homolog 2, RRM domain, GST-SBP tag (RBFOX2, Homo sapiens, UniProt O43251-10, residues 100-194)
Method: RNA Bind-n-Seq
Form: RNA
Sample: in vitro
Concentration: 365 nM
Setting: natural RNA segment, single round, ends assumed
Relative to: no-protein control
Reading: higher = stronger binding
Constant ends, left off below: GGGAGUUCUACAGUCCGACGAUC … UGGAAUUCUCGGGUGCCAA
Residues (chain): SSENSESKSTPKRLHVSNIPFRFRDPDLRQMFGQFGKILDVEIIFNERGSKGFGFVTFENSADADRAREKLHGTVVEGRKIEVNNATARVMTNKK
For `GCUGUCUGUGGUGUGUGUGCCUUGUCUAGACAUGUGGCUUCCUCUGCUGUUGACCAGGUAGGCGCAAGUCUUACCAGUGUGGGUCGGGACCAACCUGUUUUCUUCCUCAC`, “RBNS enrichment (R)” read 1.03.
`AAAUUCUUGGGCAUUUAUCUUUUAAAACUUCACUAAUAUAGCAUUGUGUGAUAAGCACUAAGCAGUCAGUCCCCUGGGGGAAUCUGGCAUAAUUCGGCUAUAAAUGUAGC` — result for “RBNS enrichment (R)”: 0.529.
`GUUUUAAGCAUUUAAUAUAAAACAUUAUAACAUUAGUUUGUACUUUUUGCUAAUAGUUUGAGCACAAAUUGAAGCCCAGAAAUACUGAAAGCUUAUUAUUUUAUAUCCUU` — result for “RBNS enrichment (R)”: 1.01.
Under “RBNS enrichment (R)”, `CAGUAAGGAAGAGGGAAGCUGAAGAAGAGGAACCUCCCCUGCCUGCCCCUGAAGCCUGGAUCAUUCGUCUUCUCCUUUACCCACCCCUAAACCCCUGAUGCUGGUUAGGA` is recorded as 0.924.
For `GGGGGAGAGAAGCUGUGGCAUAAUGUAUAGCUCUGUAGUCUUCUGUGUAGCUAGACUGUUAACCUACGAUUGUAAACUAGCUGUAAGGAUUUCCCAGUGAAAUCAGAUUU`, “RBNS enrichment (R)” read 0.491.
`UCUCAUUCUUGGUGCAACUGGCUUCCAGCUCUCCAGCAGUCACUCUCCUAGGUGCAUGAUUCAGUGCGUGCCAUGUGUCAUUAGCUUUUACUGAUAACCAUAUUCUGGCU`: “RBNS enrichment (R)” 1.31.
Under “RBNS enrichment (R)”, `ACAGUCCCUUGUGCCAGGUCAGCUAGCAUGGUGGCCUCCUGCAGAGGACUUGGUUUCUCAUCCACUUGAGGACUAUUUCCAGGUGCCAGGAGAAACCGUGCCCAUUUAGA` is recorded as 0.516.
For `UCCCUGAGCAUCUGGAGACACCUGGAGCAUGAAACCUUCUGUAAUCGCUGAGAUCUGUAACUUACAGGACACUCAAAGGGCAAUGGUUUUUUUUGGGGGGGGGGUUGUUU`, “RBNS enrichment (R)” read 1.72.
`UGCAGCUCAAAACAGUGCCUCCUGCCUCUUUAGAGCGGGGCUGCUCGGCAGCAGUGACUGCAGCCCCAGCUUGCUUAAGCAGUGUAACAGCAGGGAAGCGGGAGGAGCUG`: “RBNS enrichment (R)” 0.332.
`CAUUACUGUGGGUGGGGUUCCCCUGGGCCAAACAGUGAUUUGUCUCCCUCAAUGUGUACACCGCUCCGCUCCCACCACCGCUACCACAAGGACCCCCGGGGCUGCAGCCU`: “RBNS enrichment (R)” 0.406.

Study 3
Target: Fragile X messenger ribonucleoprotein 1, C-terminal low-complexity region (Fmr1, Mus musculus, UniProt P35922)
Method: RNA Bind-n-Seq
Form: RNA
Sample: in vitro
Concentration: 200 nM
Setting: whole 134-nt RNA, ends assumed
With: 150 mM LiCl
Relative to: input library
Reading: higher = stronger binding
All molecules: 7-deaza-guanosine replaces G
Constant ends, left off below: GGGAGUUCUACAGUCCGACGAUC … UGGAAUUCUCGGGUGUCAAGG
The log2 enrichment of `AAGUCCUGUGCUACACAUCGUAUGUACCGAAUCAAACCCCCAAACCCAAACCCAAAAAAGUAUUAUGUUACGCCGUUCGGAUCUGCACUU` is reported as -0.185.
With `UAACUUUAGAGGAGGAUCUGAUGGAUAUGGCAGUGGACGUGGAUUUGGGGAUGGCUAUAAUGGGUAUGCAGGAGGACCUGGAGGUGGCAA` the log2 enrichment was 0.704.
The log2 enrichment of `AGUCCUGUGCUACACAUCGUAUGUACCGAAUCGGGAAAAAAAGGGAAAAAGGGUGGGAAAGUAUUAUGUUACGCCGUUCGGAUCUGCACU` is reported as -1.4.
With `UAACUUUAGAGGAGGAUCUGAUGGAUAUGGCCGUGGACGUGGAUUUGGGGAUGGCUAUAAUGGGUAUGGAGGAGGACCUGGAGGUGGCAA` the log2 enrichment was -0.655.
`AGUCCUGUGCUACACAUCGUAUGUACCGAAUCGGAAAGGUUUUUUUGGUUUUUUUGGAAAGUAUUAUGUUACGCCGUUCGGAUCUGCACU` has a log2 enrichment of -3.17.
`CCUGUGCUACACAUCGUAUGUACCGAAUCGGGCCCCCCCGGGCCCCCCCGGCCCCCCCGGGAAAGUAUUAUGUUACGCCGUUCGGAUCUG` gave a log2 enrichment of 0.483.

Further values, each from its own experiment
For `PhoQ, residues 284 288 289 292 302 303 SSCCRF`, the fold induction was 20.8 (PhoP, residues 12 14 15 18 19 TQAIL (Escherichia coli, UniProt P23836); Sort-seq, item: YFP reporter; E. coli; PhoQ-PhoP variant library, with: 10 µM Mg2+; relative to: high Mg2+ state, higher = stronger signaling).

For quick reference, copied from above (study 2):
Under “RBNS enrichment (R)”, `ACAGUCCCUUGUGCCAGGUCAGCUAGCAUGGUGGCCUCCUGCAGAGGACUUGGUUUCUCAUCCACUUGAGGACUAUUUCCAGGUGCCAGGAGAAACCGUGCCCAUUUAGA` is recorded as 0.516.
For `UCCCUGAGCAUCUGGAGACACCUGGAGCAUGAAACCUUCUGUAAUCGCUGAGAUCUGUAACUUACAGGACACUCAAAGGGCAAUGGUUUUUUUUGGGGGGGGGGUUGUUU`, “RBNS enrichment (R)” read 1.72.
